Results of several laboratories.
Protocols differ between the studies behind these lines. ± marks the error that the study gave. Bridges are numbered along the chain shown (N, C = ends). Where no end group is shown, it is not given here.
B1: UGT1A9 (Homo sapiens, UniProt O60656); chain GKLLVVPMDGSHWFTMRSVVEKLILRGHEVVVVMPEVSWQLGRSLNCTVKTYSTSYTLEDLDREFKAFAHAQWKAQVRSIYSLLMGSYNDIFDLFFSNCRSLFKDKKLVEYLKESSFDAVFLDPFDNCGLIVAKYFSLPSVVFARGILCHYLEEGAQCPAPLSYVPRILLGFSDAMTFKERVRNHIMHLEEHLLCHRFFKNALEIASEILQTPVTEYDLYSHTSIWLLRTDFVLDYPKPVMPNMIFIGGINCHQGKPLPMEFEAYINASGEHGIVVFSLGSMVSEIPEKKAMAIADALGKIPQTVLWRYTGTRPSNLANNTILVKWLPQNDLLGHPMTRAFITHAGSHGVYESICNGVPMVMMPLFGDQMDNAKRMETKGAGVTLNVLEMTSEDLENALKAVINDKSYKENIMRLSSLHKDRPVEPLDLAVFWVEFVMRHKGAPHLRPAAHDLTWYQYHSLDVIGFLLAVVLTVAFITFKCCAYGYRKCLGKKGRVKKAHKSKTH

| Substance | target or system | assay | system | setting | how to read | endpoint | value |
| --- | --- | --- | --- | --- | --- | --- | --- |
| TMPFLFCNVNDVCNFASRNDYSKKK (99mTc-labelled) |  | TLC | peptide, rat serum | 8 h, 37 °C |  | radiochemical purity | > 90% |
| B1 (UGT1A9) | CCc1ccc(O)cc1 | steady-state kinetics |  | pH 7.4, 37 °C |  | Vmax/Km | 75 µL/min/mg |
| CC(C)[C@H](NC(=O)[C@@H]1CCCN1C(=O)[C@H](CCCNC(=N)N)NC(=O)[C@H](CS)NC(=O)[C@H](Cc1c[nH]c2ccccc12)NC(=O)[C@H](CCCNC(=N)N)NC(=O)[C@@H](Cc1ccccc1)NC(=O)[C@H](Cc1c[nH]cn1)NC(=O)[C@H](CCC(=O)O)NC(=O)[C@H](CS)NC(=O)[C@H](CS)NC(=O)[C@H](CCCCN)NC(=O)[C@@H]1CC(=O)N[C@@H](CCCNC(=N)N)C(=O)N[C@@H](C)C(=O)N[C@@H](CC(=O)O)C(=O)N[C@H](Cc2ccc(O)cc2)C(=O)N1)C(N)=O [technetium-99m labelled] |  |  | C57 mice, tumor | intravenous, 0.037 MBq, 24 h |  | tissue uptake | 9.24 ± 3.63 %ID/g |
| insulin aspart |  |  | healthy subjects, plasma | subcutaneous, 0.2 U/kg, 12 h |  | AUC(0-t) | 8.02 ng·h/mL |
| CARLSLSWRGLTLCPSK (68Ga-DOTA-labelled) | mouse VAP-1 | ex vivo biodistribution | peptide, wild-type mouse, B16 melanoma xenograft, kidney | 60 min, added: 500-fold excess unlabelled DOTA-peptide |  | uptake | 6.39 ± 1.19 SUV |
| insulin icodec |  |  | human, type 2 diabetes, serum | subcutaneous, 12, 20, 24 nmol/kg once weekly, 5 weeks, geometric mean |  | half-life | 196 h |
| N=C(N)NCCC[C@@H]1NC(=O)[C@H](CSC2CC(=O)N(CCNC(=O)CN3CCN(CC(=O)O)CCN(CC(=O)O)CCN(CC(=O)O)CC3)C2=O)NC(=O)[C@H](CCCCN)NC(=O)[C@@H](Cc2ccc(O)cc2)NC(=O)[C@H](CC(=O)O)NC(=O)CNC1=O (some centres unmarked) [gallium-68 labelled] |  |  | ICR mouse, female, blood | intravenous, 5 MBq, 1 to 120 min, two-compartment model |  | distribution rate constant | 0.65 ± 0.11 min⁻¹ |
| rnpA F107W (Bacillus subtilis) |  | NMR, item: His105 |  | 25 °C, Na2SO4 20 mM, numbering of the source |  | pKa | 5.52 |
| insulin lispro |  |  | human, type 1 diabetes | subcutaneous, FAST PK setting, no carbohydrate interventions |  | tmax | 1.07 h |
| TMPFLFCNVNDVCNFASRNDYSYWLHHHHHH (99mTc-labelled) |  | TLC | peptide, saline | 8 h, 37 °C |  | radiochemical purity | > 90% |
| insulin |  | shake-flask | 1-octanol/acidified water | 3 h |  | concentration in 1-octanol | 3600 ng/mL |
| Insulin human |  | ELISA | rat, brainstem | intranasal, 20 µg per nostril, 360 min |  | concentration | 45.6 ± 7.2 pg/mg tissue |
| N=C(N)NCCC[C@@H]1NC(=O)[C@H](CCCCNC(=S)Nc2ccc(CCCCCC(CN3CCN(CC(=O)O)CCN(CC(=O)O)CC3)N(CC(=O)O)CC(=O)O)cc2)NC(=O)[C@@H](Cc2ccc(O)cc2)NC(=O)[C@H](CC(=O)O)NC(=O)CNC1=O (some centres unmarked) [lutetium-177 labelled] |  |  | female athymic nu/nu mouse, U87MG xenograft, tumour | iv, 2.22 MBq, 1 h |  | tumour uptake | 1.44 ± 0.61 %ID/g |
| RDGAWFA |  |  | peptide, human polyclonal IgM RF SOR | concentration not given, 5 µg/mL mAb II-481 coated, added: RF at 50% max binding concentration |  | inhibition | 14% |
| pegcetacoplan |  | population PK model | human, GA or nAMD, serum | intravitreal, dose not given |  | apparent central volume | 0.603 log(L) |
| CPSSSREKC (disulfide 1-9 (inferred)) (disulfide) |  | fluorescence imaging | Balb/c mice, nanoparticles | intratracheal, 24 h | relative to: initial fluorescence | retention in airways | > 90% |
| LIYWAST |  |  | peptide, human polyclonal IgM RF STR | concentration not given, 5 µg/mL mAb II-481 coated, added: RF at 50% max binding concentration |  | inhibition | 8% |

For quick reference, copied from above:
| Substance | target or system | assay | system | setting | how to read | endpoint | value |
| --- | --- | --- | --- | --- | --- | --- | --- |
| insulin |  | shake-flask | 1-octanol/acidified water | 3 h |  | concentration in 1-octanol | 3600 ng/mL |
| Insulin human |  | ELISA | rat, brainstem | intranasal, 20 µg per nostril, 360 min |  | concentration | 45.6 ± 7.2 pg/mg tissue |
